Results gathered from unrelated publications.
Each numbered part is a random draw from the data of one study; scales do not carry over between parts. Changes are numbered by the printed parent chain.

Sample 1
Target: CCNE1, cyclin fold, Cln2 fusion (human)
Method: yeast growth competition, sequencing
Medium: yeast
Setting: strong parent motif
Relative to: not given
Direction: higher = stronger binding
Quantity: normalised enrichment score
Starting sequence: viral docking peptide; YKVKRRLVFGADD
YDVKRRLVFGADD [K2D]: 5.46
YKVKRRLVFQADD [G10Q]: 5.36
YKVKRRLVIGADD [F9I]: 0.777
YKVKRRLVFGCDD [A11C]: 6.21
YKVKRRLKFGADD [V8K]: 5.43
YKVKRRLVFGARD [D12R]: 3.23
YKIKRRLVFGADD [V3I]: 2.39
YKVKRRLVFGALD [D12L]: 4.67
YPVKRRLVFGADD [K2P]: 5.53
YKVKRRLVFGAED [D12E]: 5.71
YKVKRRCVFGADD [L7C]: 0.0491
AKVKRRLVFGADD [Y1A]: 5.91
YKVKRRLVFGDDD [A11D]: 6.58

Sample 2
Target: HLA class I histocompatibility antigen, A alpha chain, allele A*25:01 (Homo sapiens, UniProt P04439)
Observed: peptide-MHC binding
Form: peptide
Concentration: concentration not given
Quantity: binding
STNTLPTEY: inactive
VVDALRNIY: inactive
DEQEFFYSQ: inactive
SCINGQCPY: inactive

Sample 3
Target: Histone acetyltransferase KAT6A, winged helix 2, GST fusion (KAT6A, Homo sapiens, UniProt Q92794, residues 85-181)
Method: protein binding microarray
Form: double-stranded DNA, one strand shown
Medium: in vitro
Concentration: not given
Setting: 8-mer, flanks averaged, mean of 2 arrays, mostly near background
Relative to: not given
Direction: higher = stronger binding
Quantity: E-score
Residues (chain): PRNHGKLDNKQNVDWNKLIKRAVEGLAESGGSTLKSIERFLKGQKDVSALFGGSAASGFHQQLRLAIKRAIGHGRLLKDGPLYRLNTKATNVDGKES
CAATATTA: 0.117
CCGAGTCC: 0.201
CCCTAATC: -0.0365
CACCTTTA: -0.0549
AACGCTGG: -0.0107
GTGGAACA: 0.155
AATCTATC: -0.0186
ACGCTCAT: -0.125

Sample 4
Target: UBE2D3 UBC core domain (UniProt P61077)
Method: yeast two-hybrid
Medium: yeast
Setting: mostly zero background
Relative to: not given
Direction: higher = stronger interaction
Quantity: lacZ reporter activity
B1: ZNRF4 RING domain (UniProt Q8WWF5); chain VRTFTWHNDLCAICLDEYEEGDQLKILPCSHTYHCKCIDPWFSQAPRRSCPVCKQSVAATEDSF
Target sequence (chain): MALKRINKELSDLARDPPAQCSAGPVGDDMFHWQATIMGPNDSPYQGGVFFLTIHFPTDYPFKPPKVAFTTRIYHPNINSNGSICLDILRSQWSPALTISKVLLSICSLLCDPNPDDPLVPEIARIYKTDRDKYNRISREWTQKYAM
EIKEYKARLTCPCCNTRKKDAVLTKCFHVFCFECVRGRYEARQRKCPKCNAAFGAHDFHR (RNF40 RING domain (UniProt O75150)): 0
B1 (ZNRF4 RING domain): 12700
DDVLTKDAGECVICLEELLQGDTIARLPCLCIYHKSCIDSWFEVNRSCPEHPAD (ZNRF1 RING domain (UniProt Q8ND25)): 13300

A few entries again (sample 1):
YKVKRRLVFGAED [D12E]: 5.71
YDVKRRLVFGADD [K2D]: 5.46
